Assay results of several laboratories.
Each line is one published result; not all experiments were run side by side.

| SMILES | target or system | assay | system | conditions | endpoint | result |
| --- | --- | --- | --- | --- | --- | --- |
| COc1cc(-c2nc3ccccc3c(=O)n2Nc2ccc([N+](=O)[O-])cc2[N+](=O)[O-])ccc1OCc1cn(CC(=O)Nc2ccc([N+](=O)[O-])cc2)nn1 |  | DPPH scavenging, absorbance |  | 100 µM | inhibition | 17.2% |
| O=C1O[C@H]([C@@H](O)CO)C(O)=C1O |  | DPPH scavenging, absorbance |  | 10 µg/mL | inhibition | 45.9% |
| Cc1cc(C)c(C#N)c(SCC(=O)N2CCN(C)CC2)n1 | Leishmania infantum | parasite growth | mouse Macrophage | intracellular, amastigote | EC50 | > 64 µM |
| CC(=NNC(=O)c1ccc(N)cc1)c1ccc(Nc2nnc(-c3ccc(Cl)cc3)c3ccccc23)cc1 | HepG2 | cell growth or viability, MTT |  | 2.5 µM | cell death | 79.2% |
| Cc1cccc(N(O)N=Nc2ccc(S(=O)(=O)Nc3nccs3)cc2)c1 |  | DPPH scavenging, absorbance |  | 180 µg/mL | inhibition | 32.9% |
| CC(=NNC(=O)c1ccncc1)c1ccc(Nc2nnc(-c3ccc(Cl)cc3)c3ccccc23)cc1 | HepG2 | cell growth or viability, MTT |  | 10 µM, 24 h | viability | 5.36% |
| Cc1cccc(N(O)N=Nc2ccc(S(=O)(=O)Nc3onc(C)c3C)cc2)c1 |  | DPPH scavenging, absorbance |  | 60 µg/mL | inhibition | 24.9% |
| CC(=NNC(=O)c1ccccc1)c1ccc(Nc2nnc(-c3ccc(Cl)cc3)c3ccccc23)cc1 | HepG2 | cell growth or viability, MTT |  | 1.25 µM, 24 h | viability | 13.4% |
| O=C(Nc1ccc(-c2ccc3ncn(Cc4ccccc4)c(=O)c3c2)cn1)c1ccc(F)cc1 | NCI-H1975 | cell growth or viability, CCK-8 |  | 72 h | IC50 | > 10 µM |
| Cc1cc(C)c(C(N)=O)c(SCC(=O)c2ccc(F)cc2)n1 | Trypanosoma brucei | parasite growth, resazurin | RHODESIENSE |  | EC50 | 28.3 µM |
| CC(=NNC(=O)c1cccnc1)c1ccc(Nc2nnc(-c3ccc(Cl)cc3)c3ccccc23)cc1 | HepG2 | cell growth or viability, MTT |  | 0.312 µM, 24 h | viability | 93.6% |
| CC[C@H]1OC(=O)[C@H](C)[C@@H](O[C@H]2C[C@@](C)(OC)[C@@H](O)[C@H](C)O2)[C@H](C)[C@@H](O[C@@H]2O[C@H](C)C[C@H](N(C)C)[C@H]2O)[C@](C)(OC)C[C@@H](C)C(=O)[C@H](C)[C@@H](O)[C@]1(C)O | Helicobacter pylori | microbial growth, broth dilution |  | 7.81 µg/mL | inhibition | 100% |
| CC(=NNC(=S)Nc1ccccc1)c1ccc(Nc2nnc(-c3ccc(Cl)cc3)c3ccccc23)cc1 | HepG2 | cell growth or viability, MTT |  | 5 µM, 24 h | viability | 4.93% |
| Cc1cc(NS(=O)(=O)c2ccc(N=NN(C)O)cc2)no1 |  | DPPH scavenging, absorbance |  | 300 µg/mL | inhibition | 41.4% |
| COc1cc(-c2nc3ccccc3c(=O)n2Nc2ccc([N+](=O)[O-])cc2[N+](=O)[O-])ccc1OCc1cn(CC(=O)Nc2ccc(C)cc2)nn1 |  | DPPH scavenging, absorbance |  | 100 µM | inhibition | 23.9% |
| O=C1O[C@H]([C@@H](O)CO)C(O)=C1O |  | DPPH scavenging |  | 31.25 µg/mL | inhibition | 50% |
| O=C(O)c1ccc(O)cc1 | Helicobacter pylori | microbial growth, broth dilution |  | 0.24 µg/mL | inhibition | 84% |
| Cc1noc(NS(=O)(=O)c2ccc(N=NN(O)c3ccccc3)cc2)c1C |  | DPPH scavenging, absorbance |  | 180 µg/mL | inhibition | 13% |
| O=C(Nc1ccccc1)Nc1ccc(Oc2nnc(-c3ccc(Cl)cc3)c3ccccc23)cc1 | HepG2 | cell growth or viability, MTT |  | 5 µM, 24 h | viability | 5.07% |
| Cc1ccc(N(O)N=Nc2ccc(S(=O)(=O)Nc3onc(C)c3C)cc2)cc1 |  | DPPH scavenging, absorbance |  | 240 µg/mL | inhibition | 31% |
| CC(=NNC(=O)c1ccccc1O)c1ccc(Nc2nnc(-c3ccc(Cl)cc3)c3ccccc23)cc1 | HepG2 | cell growth or viability, MTT |  | 0.625 µM | cell death | 0.143% |
| Cc1noc(NS(=O)(=O)c2ccc(N=NN(C)O)cc2)c1C |  | DPPH scavenging, absorbance |  | 180 µg/mL | inhibition | 22.8% |
| COc1cc([C@H]2OC[C@H]3[C@@H]2CO[C@@H]3c2cc(OC)c(O)c(OC)c2)cc(OC)c1O | Helicobacter pylori | microbial growth, broth dilution |  | 1.95 µg/mL | inhibition | 100% |

A few entries again:
| SMILES | target or system | assay | system | conditions | endpoint | result |
| --- | --- | --- | --- | --- | --- | --- |
| Cc1cc(C)c(C#N)c(SCC(=O)N2CCN(C)CC2)n1 | Leishmania infantum | parasite growth | mouse Macrophage | intracellular, amastigote | EC50 | > 64 µM |
| CC(=NNC(=O)c1ccc(N)cc1)c1ccc(Nc2nnc(-c3ccc(Cl)cc3)c3ccccc23)cc1 | HepG2 | cell growth or viability, MTT |  | 2.5 µM | cell death | 79.2% |
| Cc1cccc(N(O)N=Nc2ccc(S(=O)(=O)Nc3nccs3)cc2)c1 |  | DPPH scavenging, absorbance |  | 180 µg/mL | inhibition | 32.9% |
